Assay results collected from several papers.
A part holds a random share of what one study measured. Changes are numbered by the printed parent chain.

Series 1
Target: RING finger protein unkempt homolog, zinc fingers 1-6, GST-SBP tag (UNK, Homo sapiens, UniProt Q9C0B0, residues 30-357)
UniProt Q9C0B0, sequence (30-357, looked up): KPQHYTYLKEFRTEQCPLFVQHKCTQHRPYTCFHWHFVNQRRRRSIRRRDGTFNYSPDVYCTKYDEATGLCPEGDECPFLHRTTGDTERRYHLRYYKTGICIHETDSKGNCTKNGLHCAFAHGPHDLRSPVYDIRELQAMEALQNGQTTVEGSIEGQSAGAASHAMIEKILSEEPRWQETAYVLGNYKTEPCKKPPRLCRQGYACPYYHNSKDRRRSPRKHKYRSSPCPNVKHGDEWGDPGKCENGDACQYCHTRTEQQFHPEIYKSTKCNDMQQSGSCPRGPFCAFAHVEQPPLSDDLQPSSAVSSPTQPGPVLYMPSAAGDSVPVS
Technique: RNA Bind-n-Seq
Form: RNA
Medium: in vitro
Tested at: not given
Setting: RNA with constant flanks, ends assumed
Reference: input RNA pool
Direction: higher = stronger binding
Shared flanks, not repeated: GGGAGUUCUACAGUCCGACGAUC … CAACAGAGGAUUGAGCAUCA
| Sequence | bound/input enrichment [ratio] |
| --- | --- |
| GCCAUGUGAUUUGCAAAUGGGGGGAAGCUACUGUGAGCGUGUGUUUUUUUAAUUUACACUACCGAGUGAUUUUUUUUUCCCCCAACGUCAAGUUUUUACCUUGCAUGUACUGGAGUAUUU | 0.23 |
| GUGGCUUCAUUUUCUUUGAAUUGAAAUGAAAUACAGAUUUUUUUUUUGUAUGACUUUUGCCCGCUAUAACUACUUCAACUAAUAAGAAAGAACAGCUUUAAGCCAAAACCAAAGGUCAUU | 0.212 |
| UCCCAUGACCAGAGGACUCUGAUCACUGGCAUGGCUUCUGGUAGCAUUGUAGCUUUUAAUACCGAUUUUAAUCGGUGGCAUUAUGAGCAUCAGAACAGAUACUGAAGAUAAAGGAAGAAC | 0.228 |
| UGUUAUCUGUUGCAGAAGGGAUGUAUUUGGCAGAAUCUCAGGCUGCAUGUCUGGUAGCUCAUCCGAGCCAGGAGAGAUUUUAGUUUAAUUAUAGCCUUUCAUUGUACUAACGAAGGAUUU | 1.25 |
| ACCUUUGUGGACAAGGAUUUUGUACCAUAUCAAGAUAUAAGGAUAAAUCAUACAGUGAUUUCCGAUGAUCCAUUUGAUGACCCUCCUGAUUUAUUAAUUCCUGAUCGAUCACCCGAGCCU | 0.109 |
| AUAUACUUUUAUCAUUUAAAUGUCUUAUUUGCUGCUAUGAAUAGGAAAUAACAUUUUGUACCGCAGGCUCUGUUUUACCCUAACAUUAAAAAAUUUCACUGAUCUUUCUUUCAUUAACAG | 2.64 |
| CUUAGAAUAGGGAAGCUUGCUAUUUUAAAGCUCUUGUAGUGCUUUUCUUUUAAGGGAGAUGCCGUAAAAGGGAAAAUGUAGCUCUUAGUUUACACUUCAAAGAUGUGGGGGUCUUUCAGA | 1.04 |
| UAAUUUUGGUCUGCUUAUUUUUAGAUAAAAUUGAAAGGAAUUGUAUAAAUCAAUUAACAUAUCCGCUGAGUUGUCCAACACAUGGUAUAAACGAAUUACAACAGUAAACUAUUACACAUU | 1.09 |
| GCCUAGUCUGUGUAAGCAAGAAGUAGGACCAAACUGAGGAAACUACUUGGUCCAUUCCGACCGCAGUUUAUUCAUACUCAGUGACCCGCAGGCCUCCACCUCUGCUUGAGGGAAGGGCUU | 0.151 |
| CAGGGUAUUGCCGCUGUUCUAAUAUUUUUUUAAGCAUAGACAGACUUAUAAUUAAUAUACAUCCGUCCGUGGCGUUGAAACAGUCCUCUGAGACAUUAACUAUAAGACUGUGUUCUGUUU | 0.736 |
| CUAGACUUCAAUAAGAAAAUCCUUCACACAGCCUGGCACCCCAAGGAAAAUAUCAUUGCCGCCGCUACUACAAACAAUCUGUAUAUAUUUCAAGACAAAGUGAAUUAGGGUUGGCAUUCC | 0.998 |

Series 2
Target: Sal-like protein 4, full length isoform A (SALL4, Homo sapiens, UniProt Q9UJQ4, residues 1-1053)
UniProt Q9UJQ4, sequence (whole entry, looked up): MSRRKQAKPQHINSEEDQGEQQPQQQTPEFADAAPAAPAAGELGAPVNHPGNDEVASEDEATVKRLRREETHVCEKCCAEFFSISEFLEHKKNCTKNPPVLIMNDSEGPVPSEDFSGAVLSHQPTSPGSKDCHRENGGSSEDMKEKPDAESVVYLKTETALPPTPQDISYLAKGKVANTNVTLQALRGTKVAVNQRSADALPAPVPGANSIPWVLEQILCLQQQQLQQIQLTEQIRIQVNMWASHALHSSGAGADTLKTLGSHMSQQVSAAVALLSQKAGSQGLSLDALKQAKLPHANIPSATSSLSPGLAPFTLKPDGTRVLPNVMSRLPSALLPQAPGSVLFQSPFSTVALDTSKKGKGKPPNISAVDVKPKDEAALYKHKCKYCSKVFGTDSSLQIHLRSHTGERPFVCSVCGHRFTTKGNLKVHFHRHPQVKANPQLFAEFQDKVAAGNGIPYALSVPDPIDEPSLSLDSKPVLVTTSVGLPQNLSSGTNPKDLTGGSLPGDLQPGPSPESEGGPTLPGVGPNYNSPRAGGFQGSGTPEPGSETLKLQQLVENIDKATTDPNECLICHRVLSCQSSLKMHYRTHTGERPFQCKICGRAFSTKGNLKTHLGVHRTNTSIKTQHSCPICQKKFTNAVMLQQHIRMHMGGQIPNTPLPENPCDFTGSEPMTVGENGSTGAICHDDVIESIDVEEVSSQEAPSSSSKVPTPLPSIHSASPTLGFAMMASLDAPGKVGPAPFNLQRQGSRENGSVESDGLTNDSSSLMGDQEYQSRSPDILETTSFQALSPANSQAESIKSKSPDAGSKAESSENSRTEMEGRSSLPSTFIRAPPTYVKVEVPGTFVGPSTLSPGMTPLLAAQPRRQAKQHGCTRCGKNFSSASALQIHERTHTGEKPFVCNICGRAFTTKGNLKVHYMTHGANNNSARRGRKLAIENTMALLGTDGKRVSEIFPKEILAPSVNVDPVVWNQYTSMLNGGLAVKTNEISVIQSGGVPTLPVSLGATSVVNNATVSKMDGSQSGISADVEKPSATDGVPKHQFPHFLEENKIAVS
Technique: universal PBM
Form: double-stranded DNA, one strand shown
Medium: in vitro
Tested at: 600 nM
Setting: 8-mer, flanks averaged, mean of replicates
Direction: higher = stronger binding
| Sequence | E-score |
| --- | --- |
| TTCACCAA | 0.0561 |
| GTACGCCA | -0.197 |
| ACGTAAGG | 0.0498 |
| GTAAGAAC | 0.0852 |
| CCCAAAAA | 0.0373 |
| CGTAGGAG | -0.161 |
| GCGACGCA | -0.216 |
| ATTTGGCC | -0.0898 |
| ACAAAGAT | 0.254 |
| GCACGTCA | -0.0923 |
| ATGGGTAG | -0.0631 |
| ATTTTACG | 0.278 |
| CCCCTCTA | -0.196 |
| CCAATGGG | -0.334 |
| ATTCGTGC | 0.0592 |
| GTCACTTA | 0.149 |
| CACAGGAG | -0.0316 |
| CAGCTAGA | -0.138 |
| GATTAAAA | 0.353 |
| AACTTTTA | 0.265 |
| AAAGGTTC | 0.0428 |
| CGGTTCAC | -0.202 |

Series 3
Target: CCND3, cyclin fold, Cln2 fusion (human)
Technique: yeast growth competition, sequencing
Medium: yeast
Setting: weak parent motif
Reference: not given
Direction: higher = stronger binding
Starting sequence: ANKRD17 docking peptide (human); PSVRRQLFVTVVK
| Variant | normalised enrichment score |
| --- | --- |
| PSVRRALFVTVVK [Q6A] | 0.0702 |
| PSVRRQLFVTAVK [V11A] | 0.21 |
| PSVRAQLFVTVVK [R5A] | 0.241 |
| PSVRKQLLVTVVK [R5K F8L] | 0.983 |
| PSARRQLFVTVVK [V3A] | 0.191 |
| PSVRRQAFVTVVK [L7A] | 0.193 |
| PSVRRQLFVAVVK [T10A] | 0.202 |

Series 4
Target: Interferon regulatory factor 7, full length, phosphomimetic (IRF7, Homo sapiens, UniProt Q92985, residues 1-503, S471D/S472D/S475D/S476D/S477D/S483D/S484D/S487D)
UniProt Q92985, sequence (whole entry, unmodified, looked up): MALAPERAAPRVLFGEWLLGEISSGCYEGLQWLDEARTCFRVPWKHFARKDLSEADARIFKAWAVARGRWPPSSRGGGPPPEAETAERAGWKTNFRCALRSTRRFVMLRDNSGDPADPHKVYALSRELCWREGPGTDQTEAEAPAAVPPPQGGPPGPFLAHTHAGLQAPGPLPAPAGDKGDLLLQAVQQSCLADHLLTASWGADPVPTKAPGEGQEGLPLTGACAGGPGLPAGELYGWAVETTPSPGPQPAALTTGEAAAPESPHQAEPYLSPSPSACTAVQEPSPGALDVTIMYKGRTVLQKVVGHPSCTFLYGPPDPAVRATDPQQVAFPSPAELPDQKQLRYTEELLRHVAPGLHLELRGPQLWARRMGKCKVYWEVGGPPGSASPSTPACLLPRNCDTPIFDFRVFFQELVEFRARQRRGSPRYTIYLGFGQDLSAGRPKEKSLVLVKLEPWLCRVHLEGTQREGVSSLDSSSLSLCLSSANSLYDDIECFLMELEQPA
Technique: protein-binding microarray
Form: double-stranded DNA, one strand shown
Medium: in vitro
Tested at: 2200 nM top
Setting: 60-bp whole probe
With: salmon DNA 0.4 mg/ml
Reference: random background probes
Direction: higher = stronger binding
Shared flanks, not repeated: GCCTAGCAC … GTCTTGATTCGCTTGACGCTGCTG
| Sequence | fitted relative affinity [z-score] |
| --- | --- |
| GACGATTTCAGTTTCGAAACGTGCTAG | 5.66 |
| GACGGTTCCCTTTTCCTGAAGTGCTAG | 2.57 |
| GACGGTTTCGGTCTCTGGACGTGCTAG | 7.82 |
| GACGGTTTCGGGTATCGGGATGTGCTA | 6.11 |
| GACGGACTGGGGTATCCGGACGTGCTA | -0.712 |
| TTAGGTATCGACTTACGGTTAGTGCTA | 0.974 |
| TCAGTTACCCACCTCAGACTGTGCTAG | 1.26 |
| ACCCGAGACACCGCCCCTTTGTGCTAG | -0.0905 |
| TTAGGTTTCCTGCTCCTTTAGTGCTAG | 1.57 |
| CAGAAAATAGAAACTCGTGTTGTGCTA | 0.795 |
| GATGGTCTCCTTTTCCTGACGTGCTAG | 1.5 |
| GACGGTATCGTTCTCGGGACGTGCTAG | 0.406 |
| CACGATATCAGTATCGAGACGTGCTAG | 0.546 |
| TTCGGACTGGGGACTGGGTTAGTGCTA | -0.655 |
| TTAGAACTGGGGACTGGATGAGTGCTA | -0.454 |
| TTTAGGTCCCTTTTCATGCTGTGCTAG | 1.96 |
| TTAGGTCTCCGTTTCGGTTAGTGCTAG | 3.9 |
| GGGGTTTCGGATGGGATGTCGTGCTAG | 3.01 |

Series 5
Target: ABI1, truncated, D143A, DHFR fusion (Arabidopsis thaliana)
Technique: DHFR PCA, deep sequencing
Medium: yeast
Setting: methotrexate growth selection, single substitutions
With: (+)-ABA 58 µM
Reference: wild-type fitted maximum
Direction: higher = stronger binding
Starting sequence: PYL1, truncated, DHFR fusion (Arabidopsis thaliana); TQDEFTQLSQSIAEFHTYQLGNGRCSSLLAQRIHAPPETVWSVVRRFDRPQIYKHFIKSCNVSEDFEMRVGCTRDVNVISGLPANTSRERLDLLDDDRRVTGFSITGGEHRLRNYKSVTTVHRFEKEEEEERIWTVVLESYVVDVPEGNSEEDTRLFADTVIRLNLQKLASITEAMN
| Variant | relative binding score [%] |
| --- | --- |
| L169A | 4.52 |
| G107K | 44.3 |
| R74P | -6.78 |
| S117W | -13.5 |
| P83C | 22.4 |
| T119P | -7.5 |
| L28M | 93.4 |
| N114P | -12.6 |
| V62F | 62.7 |
| V121W | 3.62 |
| L112P | 14.5 |
| S42E | 94 |

Series 6
Target: Histone acetyltransferase KAT6A, winged helix 2, GST fusion (KAT6A, Homo sapiens, UniProt Q92794, residues 85-181)
Technique: protein binding microarray
Form: double-stranded DNA, one strand shown
Medium: in vitro
Tested at: not given
Setting: 8-mer, flanks averaged, mean of 2 arrays, mostly near background
Reference: not given
Direction: higher = stronger binding
Residues (chain): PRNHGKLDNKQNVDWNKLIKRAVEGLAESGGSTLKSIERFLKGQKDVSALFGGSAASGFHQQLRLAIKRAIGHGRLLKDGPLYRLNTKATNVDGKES
| Sequence | E-score |
| --- | --- |
| GAAGACAA | 0.123 |
| GGTGCGAC | 0.0615 |
| CGAGCACG | -0.0536 |
| CAAATAAA | 0.0125 |
| ACCAGCAG | -0.0139 |
| ACTTCTGC | 0.0117 |
| CCAGACTA | 0.0602 |
| CTAGCTTA | -0.135 |
| CTGGGAGA | -0.0418 |
| CCACGACC | 0.0403 |
| CATGATAA | -0.0399 |
| CAACGCTC | -0.135 |
| GATGAGCA | 0.152 |
| GCGAGGCC | 0.159 |
| CACCTGCG | 0.161 |
| GATCTTCC | 0.0482 |

A few entries again (series 4):
| Sequence | fitted relative affinity [z-score] |
| --- | --- |
| ACCCGAGACACCGCCCCTTTGTGCTAG | -0.0905 |
| GACGGTTTCGGGTATCGGGATGTGCTA | 6.11 |
| TTTAGGTCCCTTTTCATGCTGTGCTAG | 1.96 |
| GACGGACTGGGGTATCCGGACGTGCTA | -0.712 |
| GACGGTTTCGGTCTCTGGACGTGCTAG | 7.82 |
| GGGGTTTCGGATGGGATGTCGTGCTAG | 3.01 |
| GACGGTATCGTTCTCGGGACGTGCTAG | 0.406 |
| TCAGTTACCCACCTCAGACTGTGCTAG | 1.26 |
| TTAGGTCTCCGTTTCGGTTAGTGCTAG | 3.9 |
| TTCGGACTGGGGACTGGGTTAGTGCTA | -0.655 |
